Measurements collected from several papers.
Compare with care: the assays were run in different laboratories. In brackets after ≈: the same amount, converted by molar mass.
PFF0160c: Dihydroorotate dehydrogenase (quinone), mitochondrial (PFF0160c, Plasmodium falciparum, UniProt Q08210)
Chain of UniProt Q08210 (whole entry, looked up): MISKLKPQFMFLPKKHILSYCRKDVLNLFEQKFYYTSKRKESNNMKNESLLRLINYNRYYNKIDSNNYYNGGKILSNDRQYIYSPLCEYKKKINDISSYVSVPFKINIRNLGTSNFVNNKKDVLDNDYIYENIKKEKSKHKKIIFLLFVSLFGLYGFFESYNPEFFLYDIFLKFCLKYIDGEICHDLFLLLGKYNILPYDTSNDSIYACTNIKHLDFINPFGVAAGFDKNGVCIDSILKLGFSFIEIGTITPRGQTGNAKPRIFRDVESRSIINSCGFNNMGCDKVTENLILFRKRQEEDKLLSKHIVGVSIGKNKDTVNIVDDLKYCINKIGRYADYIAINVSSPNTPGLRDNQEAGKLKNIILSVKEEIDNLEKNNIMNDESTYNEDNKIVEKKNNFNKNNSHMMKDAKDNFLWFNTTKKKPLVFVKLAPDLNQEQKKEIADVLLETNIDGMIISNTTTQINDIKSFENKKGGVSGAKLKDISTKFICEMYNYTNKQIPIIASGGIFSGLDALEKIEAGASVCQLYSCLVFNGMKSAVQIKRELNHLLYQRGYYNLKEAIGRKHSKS
Chain of UniProt Q15418 (whole entry, looked up): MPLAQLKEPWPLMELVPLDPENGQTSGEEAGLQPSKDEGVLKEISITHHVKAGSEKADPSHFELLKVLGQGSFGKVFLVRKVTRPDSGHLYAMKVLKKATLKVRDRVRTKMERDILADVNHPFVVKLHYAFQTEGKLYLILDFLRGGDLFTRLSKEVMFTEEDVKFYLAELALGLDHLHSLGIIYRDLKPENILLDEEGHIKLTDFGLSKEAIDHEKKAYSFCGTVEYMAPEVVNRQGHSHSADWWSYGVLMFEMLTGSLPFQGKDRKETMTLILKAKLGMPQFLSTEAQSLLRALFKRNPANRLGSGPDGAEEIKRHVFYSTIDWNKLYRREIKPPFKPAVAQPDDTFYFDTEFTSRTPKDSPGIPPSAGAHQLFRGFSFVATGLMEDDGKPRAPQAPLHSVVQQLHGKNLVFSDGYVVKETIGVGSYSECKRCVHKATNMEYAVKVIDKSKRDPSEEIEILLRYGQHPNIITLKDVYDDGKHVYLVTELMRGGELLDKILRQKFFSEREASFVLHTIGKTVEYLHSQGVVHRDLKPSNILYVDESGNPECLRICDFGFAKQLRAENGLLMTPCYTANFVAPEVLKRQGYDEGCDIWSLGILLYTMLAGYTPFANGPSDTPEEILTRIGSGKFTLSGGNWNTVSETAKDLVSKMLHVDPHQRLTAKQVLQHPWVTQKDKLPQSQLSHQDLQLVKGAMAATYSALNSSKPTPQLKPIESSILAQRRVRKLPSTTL

O=C(N[C@H](CO)[C@H](O)c1ccc([N+](=O)[O-])cc1)C(Cl)Cl
MIC (Burkholderia cenocepacia; microbial growth; J2315): 16 µg/mL

Cc1[nH]c2ccc(-c3ccccc3)cc2c(=O)c1Br
IC50 (PFF0160c; enzyme activity, inhibitor, absorbance): 0.702 µM

Cc1ncc([N+](=O)[O-])n1CCO
MIC (Burkholderia cenocepacia; microbial growth; J2315): > 256 µg/mL

CC(=O)C1=C(O)C(CC(C)C)NC1=O (stereo not drawn)
MIC (Burkholderia cepacia; microbial growth; ATCC25416): > 200 µg/mL

N#Cc1cncc(Cn2c(=S)[nH]c3ccc(Cl)cc3c2=O)c1
MIC90 (Mycobacterium tuberculosis; microbial growth; H37RV): > 100 µM

C/C(O)=C1\C(=O)C(CC(C)C)N(C(=O)C=Cc2ccccc2)C1=O (stereo not drawn)
MIC (Burkholderia cepacia; microbial growth; ATCC25416): > 200 µg/mL

Nc1c(C(=O)N2CCOCC2)sc2nc(-c3ccoc3)ccc12
IC50 (Mycobacterium tuberculosis; microbial growth; H37RV): 60 µM

CCCCC(=O)N1C(=O)/C(=C(/C)O)C(=O)C1CC(C)C (stereo not drawn)
MIC (Burkholderia cepacia; microbial growth; ATCC25416): > 200 µg/mL

CC(C)C(=O)OCc1cc2[nH]c(=S)n(Cc3cncnc3)c(=O)c2cc1Cl
MIC90 (Mycobacterium tuberculosis; microbial growth; H37RV): 1.36 µM (≈ 0.551 µg/mL)

Nc1c(C(=O)Nc2ccccc2F)sc2nc(-c3ccccc3)cc(C(F)(F)F)c12
IC50 (Mycobacterium tuberculosis; microbial growth; H37RV): > 100 µM

CC(=O)c1c(Cc2cccc(C(F)(F)F)c2)c[nH]c1C
IC50 (PFF0160c; enzyme activity, inhibitor, absorbance): 2.23 µM

OC(Cn1cncn1)(Cn1cncn1)c1ccc(F)cc1F
MIC (Lodderomyces parapsilosis; microbial growth, broth dilution; ATCC22019): 2 µg/mL

COC(=O)c1cc(-c2cccc(NC(=S)Nc3cccc(Cl)c3)c2)on1
MIC (Klebsiella pneumoniae; microbial growth, broth dilution; BAA1705): > 64 µg/mL

Nc1ncnc2c([C@@H]3N[C@H](CO)[C@@H](O)[C@H]3O)c[nH]c12
inhibition (unidentified influenza virus; viral replication, inhibitor; MDCK; 0.9 µM): 0%

Cc1cccc(CSc2nccc(OCCOc3cc(=O)oc4ccccc34)n2)c1
inhibition (Human coronavirus 229E; cytopathic effect; A549; 6.25 µM): 31.7%

Cc1cccc(CNC(=O)c2sc3nc(-c4ccc5c(c4)OCO5)cc(C(F)(F)F)c3c2N)c1C
IC50 (Mycobacterium tuberculosis; microbial growth; H37RV): > 100 µM

CCOC(=O)C1=C[C@@H](OC(CC)CC)[C@H](NC(C)=O)[C@@H](N)C1
inhibition (Human coronavirus 229E; cytopathic effect; A549; 3.13 µM): 21.2%

CC(=O)OCc1cc2[nH]c(=S)n(Cc3cccnc3)c(=O)c2cc1Cl
MIC90 (Mycobacterium tuberculosis; microbial growth; H37RV): 3.25 µM

O=c1cc(OCCCOc2ccnc(SCc3ccc(F)cc3)n2)c2cc(F)ccc2o1
inhibition (Human coronavirus 229E; cytopathic effect; A549; 3.13 µM): 15.3%

CCCCCCC/C=C/C(=O)N1C(=O)/C(=C(\O)c2ccncc2)C(=O)C1CC(C)C (stereo not drawn)
MIC (Burkholderia cepacia; microbial growth; ATCC25416): 200 µg/mL

COc1ccc(-c2cc(C(F)(F)F)c3c(N)c(C(=O)Nc4cc(C)cc(C)c4)sc3n2)cc1
IC50 (Mycobacterium tuberculosis; microbial growth; H37RV): > 100 µM

CCCCCCC/C=C/C(=O)N1C(=O)/C(=C(/C)O)C(=O)C1CCC(=O)O (stereo not drawn)
MIC (Burkholderia cepacia; microbial growth; ATCC25416): > 200 µg/mL

O=C(c1cc2ccc(-c3ccccc3)nc2s1)N1CCCC1
IC50 (Mycobacterium tuberculosis; microbial growth; H37RV): > 100 µM

C[C@@H](O)[C@H]1C(=O)N2C(C(=O)O)=C(S[C@@H]3CN[C@H](C(=O)N(C)C)C3)[C@H](C)[C@H]12
MIC (Burkholderia cenocepacia; microbial growth; J2315): 16 µg/mL

COc1c(N2C[C@@H]3CCCN[C@@H]3C2)c(F)cc2c(=O)c(C(=O)O)cn(C3CC3)c12
MIC (Mycolicibacterium fortuitum; microbial growth; ATCC6841): 0.03 µM

COC(=O)OCOc1c2n(ccc1=O)N([C@@H]1c3ccccc3SCc3c1ccc(F)c3F)[C@@H]1COCCN1C2=O
EC50 (Influenza A virus; viral replication, inhibitor; H3N2): 0.00323 µM

[2H]c1c([2H])c([C@]2([2H])CCCN2C(=O)C(C)(C)Oc2ccc3cn[nH]c3c2)c([2H])c([2H])c1C([2H])([2H])[2H]
remaining binding (Ribosomal protein S6 kinase alpha-1, N-terminal kinase domain (RPS6KA1, Homo sapiens, UniProt Q15418); binding, competition with immobilised ligand; 1 µM): 91%

CC(=O)NCCC(c1cccnc1)n1c(=S)[nH]c2ccc(Cl)cc2c1=O (stereo not drawn)
MIC90 (Mycobacterium tuberculosis; microbial growth; H37RV): > 100 µM

Cc1ccc(-c2cc(C(F)(F)F)c3c(N)c(C(=O)Nc4cccc(C)c4C)sc3n2)cc1
IC50 (Mycobacterium tuberculosis; microbial growth; H37RV): > 100 µM

O=c1c2cc(Cl)ccc2[nH]c(=S)n1Cc1cccnc1
MIC90 (Mycobacterium tuberculosis; microbial growth; H37RV): > 100 µM

COc1ccc(-c2cc(C(F)(F)F)c3c(N)c(C(=O)NCc4cccc(C)c4C)sc3n2)cc1
IC50 (Mycobacterium tuberculosis; microbial growth; H37RV): 0.77 µM

CC(C)C(=O)OCc1cc2[nH]c(=S)n(Cc3cccnc3)c(=O)c2cc1Cl
MIC90 (Mycobacterium tuberculosis; microbial growth; H37RV): 2 µM (≈ 0.808 µg/mL)

COc1ccc(-c2cc(C(F)(F)F)c3c(N)c(C(=O)Nc4cccc(C)c4OC)sc3n2)cc1
IC50 (Mycobacterium tuberculosis; microbial growth; H37RV): > 100 µM

Repeated from above:
COc1c(N2C[C@@H]3CCCN[C@@H]3C2)c(F)cc2c(=O)c(C(=O)O)cn(C3CC3)c12
MIC (Mycolicibacterium fortuitum; microbial growth; ATCC6841): 0.03 µM

C[C@@H](O)[C@H]1C(=O)N2C(C(=O)O)=C(S[C@@H]3CN[C@H](C(=O)N(C)C)C3)[C@H](C)[C@H]12
MIC (Burkholderia cenocepacia; microbial growth; J2315): 16 µg/mL

OC(Cn1cncn1)(Cn1cncn1)c1ccc(F)cc1F
MIC (Lodderomyces parapsilosis; microbial growth, broth dilution; ATCC22019): 2 µg/mL

CCCCCCC/C=C/C(=O)N1C(=O)/C(=C(\O)c2ccncc2)C(=O)C1CC(C)C (stereo not drawn)
MIC (Burkholderia cepacia; microbial growth; ATCC25416): 200 µg/mL
